Results of several laboratories.
Lines come from different studies, so protocols differ. Numbers after ± are the reported error.

The maximal inhibition of `Fc1ccc(Nc2nc(NC3CCCCC3)c3cc(Br)ccc3n2)cc1F` is reported as 0.1% (β2AR/β1AR ICL3 chimera; β-arrestin2 recruitment, antagonist, BRET; relative to: isoprenaline maximal response).
For `Cc1cn(CC(=O)N(CCNC(=O)CN(CCNC(=O)CN(CCNC(=O)CN(CCNC(=O)CN(CCNC(=O)CN(CCNC(=O)CN(CCNC(=O)CN(CCN)C(=O)Cn2cnc3c(=O)[nH]c(N)nc32)C(=O)Cn2cnc3c(N)ncnc32)C(=O)Cn2cc(C)c(=O)[nH]c2=O)C(=O)Cn2cnc3c(=O)[nH]c(N)nc32)C(=O)Cn2cc(C)c(=O)[nH]c2=O)C(=O)Cn2cnc3c(=O)[nH]c(N)nc32)C(=O)Cn2cnc3c(N)ncnc32)CC(=O)NCCN(CC(=O)NCCOCCOCC(N)=O)C(=O)Cn2cnc3c(N)ncnc32)c(=O)[nH]c1=O`, the Tm was 42 ± 0.73 °C (complementary DNA; duplex formation, UV melting; PBS; 1 µM, pH 7.2).
`CCCCCCc1ccc(N(Cc2ccccc2)C(=O)OC(C)(C)C)cc1` — result for “average chemical shift perturbation”: 0.014 ppm (HBV core protein Cp149 dimer; solution NMR; 4 molar equivalents, pH 7.5, 295 K, average over eight residues; relative to: apo Cp149 dimer).
Under “percent of control”, `C=CC(=O)Nc1cccc(Cn2ncc3cnc(Nc4cnn(CCOC)c4)nc32)c1` is recorded as 92% (ASK2 human; binding, KINOMEscan; 100 nM; lower = stronger binding).
With `Nc1ncc(-c2cc(-c3cnn(CC(F)(F)F)c3)ncc2F)nc1C(=O)NC1CNCC(F)C1` (stereo not drawn) the remaining binding was 88% (NEK11; KINOMEscan; 1 µM; relative to: DMSO control).
With `C=CC(=O)N1[C@H](c2ccc3c(c2)OCO3)c2[nH]c3ccccc3c2C[C@@H]1C(=O)N1CCN(C)CC1` the relative co-enrichment was 104% (human cyclin E1 N112C-3xFLAG:CDK2; co-IP with TMT proteomics, measured: RPSA; concentration not given, P08865; relative to: wild type DMSO).
With `C#CCN1CCN(c2nc(N3CCN(c4ccc(Cc5cc(CNC(=O)[C@@H]6C[C@@H](O)CN6C(=O)[C@@H](NC(=O)C6(F)CC6)C(C)(C)C)c(O)cc5-c5scnc5C)cc4)CC3)nc(N3CCN(C(=O)C4CC4)C3)n2)CC1=O` the cooperativity alpha was 0.26 (BRD9 and VHL-elongin C-elongin B; SPR; immobilized BRD9; relative to: binary KD over ternary KD).
With `Cc1cc(NC(=O)C(=O)N2C[C@@H](C)CC[C@@H]2c2ccc3scnc3c2)cnc1N` the IC50 was 9 nM (PRMT5 human; western blot, measured: SDMA; HAP1 MTAP-null; 24 h).
`CCOC(=O)CCc1ccc(N)cc1` — result for “average chemical shift perturbation”: 0.016 ppm (HBV core protein Cp149 dimer; solution NMR; 4 molar equivalents, pH 7.5, 295 K, average over eight residues; relative to: apo Cp149 dimer).
`COc1cc2ncnc(Oc3ccc(N)cc3F)c2cc1OC` — result for “binding free energy change”: -0.99 kcal/mol (WDR5; relative to: parent hit compound, negative = stronger binding).
`c1ccc(-c2n[nH]cc2-c2ccnc3ccccc23)nc1` — result for “log2 fold change”: -0.37 (TOR1 (Candida albicans); kinase binding, MIB/MS competition; Candida albicans lysate; 1 µM; relative to: DMSO).
`CC(=O)NCCN(c1nc(N2CC3C(CCOc4cc(-c5scnc5C)ccc4CNC(=O)[C@@H]4C[C@@H](O)CN4C(=O)[C@@H](NC(=O)C4(F)CC4)C(C)(C)C)C3C2)nc(N2CC(n3ccnc3)C2)n1)C(C)C` (stereo partly drawn) gave a cooperativity alpha of over 16 (BRD9 and VHL-elongin C-elongin B; SPR; immobilized BRD9; relative to: binary KD over ternary KD).
For `CCCCC(=O)N(C)c1ccc(OC)cc1`, “average chemical shift perturbation” read 0.018 ppm (HBV core protein Cp149 dimer; solution NMR; 4 molar equivalents, pH 7.5, 295 K, average over eight residues; relative to: apo Cp149 dimer).
For `CC[C@H](C)[C@H](NC(=O)[C@H](CC(C)C)NC(=O)[C@H](C)NC(=O)[C@H](C)NC(=O)[C@@H]1CCCN1C(=O)[C@@H](NC(=O)[C@H](C)N)C(C)C)C(=O)N[C@@H](CC(C)C)C(=O)N[C@@H](CCCNC(=N)N)C(=O)N[C@@H](CCC(=O)O)C(=O)N[C@@H](CCCCN)C(=O)N[C@@H](CCCCN)C(=O)N[C@@H](CCCCN)C(=O)N[C@@H](CCCCNC(=O)CCCCCNC(=S)Nc1ccc2c(c1)C(=O)OC21c2ccc(O)cc2Oc2cc(O)ccc21)C(N)=O`, “log2 fold change” read 4.11 (BIRC2 (human); concentration not given, 100-fold competition; relative to: no competitor).
`COC(=O)CCc1ccc(N)cc1`: “average chemical shift perturbation” 0.021 ppm (HBV core protein Cp149 dimer; solution NMR; 4 molar equivalents, pH 7.5, 295 K, average over eight residues; relative to: apo Cp149 dimer).
`Fc1ccc(Nc2nc(NC3CCCCC3)c3cc(C(F)(F)F)ccc3n2)cc1F` gave a pIC50 of 6.2 (β2AR/β1AR ICL3 chimera; β-arrestin2 recruitment, antagonist, BRET; added: isoprenaline 1 µM).
`Cc1ncsc1-c1ccc(CNC(=O)[C@@H]2C[C@@H](O)CN2C(=O)[C@@H](NC(=O)C2(F)CC2)C(C)(C)C)c(OCCC2CN(c3nc(NCC(C)(C)C4(O)CCOC4)nc(N4CCC[C@H]4Cn4ccnn4)n3)C2)c1` (stereo partly drawn) gave a cooperativity alpha of 5.9 (BRD9 and VHL-elongin C-elongin B; SPR; immobilized BRD9; relative to: binary KD over ternary KD).
`Nc1ccc(C2CC2)cc1` — result for “average chemical shift perturbation”: 0.029 ppm (HBV core protein Cp149 dimer; solution NMR; 4 molar equivalents, pH 7.5, 295 K, average over eight residues; relative to: apo Cp149 dimer).

A few entries again:
For `CCCCC(=O)N(C)c1ccc(OC)cc1`, “average chemical shift perturbation” read 0.018 ppm (HBV core protein Cp149 dimer; solution NMR; 4 molar equivalents, pH 7.5, 295 K, average over eight residues; relative to: apo Cp149 dimer).
For `CC[C@H](C)[C@H](NC(=O)[C@H](CC(C)C)NC(=O)[C@H](C)NC(=O)[C@H](C)NC(=O)[C@@H]1CCCN1C(=O)[C@@H](NC(=O)[C@H](C)N)C(C)C)C(=O)N[C@@H](CC(C)C)C(=O)N[C@@H](CCCNC(=N)N)C(=O)N[C@@H](CCC(=O)O)C(=O)N[C@@H](CCCCN)C(=O)N[C@@H](CCCCN)C(=O)N[C@@H](CCCCN)C(=O)N[C@@H](CCCCNC(=O)CCCCCNC(=S)Nc1ccc2c(c1)C(=O)OC21c2ccc(O)cc2Oc2cc(O)ccc21)C(N)=O`, “log2 fold change” read 4.11 (BIRC2 (human); concentration not given, 100-fold competition; relative to: no competitor).
`COC(=O)CCc1ccc(N)cc1`: “average chemical shift perturbation” 0.021 ppm (HBV core protein Cp149 dimer; solution NMR; 4 molar equivalents, pH 7.5, 295 K, average over eight residues; relative to: apo Cp149 dimer).
